Results gathered from unrelated publications.
Each numbered part is a random draw from the data of one study; scales do not carry over between parts.

Study 1
Target: RNA binding protein fox-1 homolog 2, RRM domain, GST-SBP tag (RBFOX2, Homo sapiens, UniProt O43251-10, residues 100-194)
Technique: RNA Bind-n-Seq
Form: RNA
Medium: in vitro
Tested at: 365 nM
Notes: natural RNA segment, single round, ends assumed
Relative to: no-protein control
Direction: higher = stronger binding
All sequences stand within: GGGAGUUCUACAGUCCGACGAUC … UGGAAUUCUCGGGUGCCAA
Residues (chain): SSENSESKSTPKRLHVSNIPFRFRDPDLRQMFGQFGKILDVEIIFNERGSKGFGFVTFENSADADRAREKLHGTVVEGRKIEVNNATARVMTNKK
Sequence	RBNS enrichment (R)
UCUGUAGAGCUGCCUGCCAAGCCACCUGAAACACAGUGGCUCCCUGUGACACUCAGGCCUCAGAUGAGCCUCGCUUGCCUUCACUGCUUCUGUUUUAAACAGUAGUAAAA	0.249
UGUAGUGCAGAACGUUUAUUGCUGUUUUUGUGUUUGAAUAGUAUAAUGUUUGAUGCCUCUCUUCUGCAAAGCGUAUCAUCUCAUUGACUGUGAAUCUGUAUAUUAUUCUG	0.731
UGGACUUGUAUAGUGAGAGAGGAGGCCUGGACCGAGAUGUGAGUCCUGUUGAAGACUUCCUCUCUACCCCCCACCUUGGUCCCUCUCAGAUACCCAGUGGAAUUCCAACU	0.216
UUUUUGAAUGCUUCCAAGACUUAUCAUGAAAACUGUCAAUGGAUAAUCAUUUCCUGCUGACUUUGCACGCCAAGGAAUGCUACUAGGGAUUGUUUCCGUUUUUGUUUGUU	2.14
GGAAAGGAUGGUUUACAUAGCAGUUCCAGCCUCCUUUUGCUUUGGCCAGUUGGCCUUCUCACUUUGAUAGUUUAACUCAGGUACCCAGUCUUCACUCCAUCCCCAGGUGC	0.34
CAAAUGGAACAGAAGCCAUUGUGGUUCAUCCUGAUUACUUGAACGUUGCACUUGGUGGACCGUGCCUGGGAGCGCUCGCAUGCCCCCUGGCUUCAGAAGUCAUGUCAGUG	0.263
CUGCCUGUGGAACUCACUUCCUGGACUGAUGAGCACGGUCAGCCUCUGUCCCCACUGCAGGUGCUGCUUCUCCUCAGGUGUGGCCUACCUAGGCUCCUGGACCCACACCC	0.343
GGAGGUCUCCAGUUCACAAGAGCUUCCUGGGAAGGAUAAUAAUCAUGUUUGUAGGAAUCUCAUUCCCAUCGACCUUUACCGAUGGAGAGCCAAUUGUAAUUCUUUUGCCC	0.42
GGUCAUAAUUCAGUAUAUACUAGCCUACUCAUCUCUGAAGACUGACUUUGCUCGUAAUUUUUUUUUAAUUGGCCACAUAGCAUUAAUGCCUCCACAGGGUUCCUGUGUUU	0.652
AUGAGGCUCGGUCACCACGCUGAGCCUACGUCACUUCCCACUUCCACUGGGGCUUGGUGCCCUGUAGGGGUGGGAGGAUGGCUUAAUGCAGACCUUUACCUGUGAGCCCC	0.165
CUCAGCCUCCCAAAGUGCUGGGAUUACAGGCGUGAGCUAUCCCGCCCGGUCCCCUUUUCUUUAUUAUCGAAGAUAUUGUUUAAAAGAAAGAAAAAGUAGGUCCCAAUAAU	0.233
AACUAGCAACCCCUUCAAGGACUGAAGAGCUGCCCCAACGGCAUGCUCCAGAUAAUCUUGUCCCUGCUCCUCACUUCCACAGGGGACAUUGUGAGGCCACUGGCAUGGAU	2.62

Study 2
Target: Interferon regulatory factor 5, full length, phosphomimetic (IRF5, Homo sapiens, UniProt Q13568-2, residues 1-514, S451D/S453D/S456D/S462D)
Technique: protein-binding microarray
Form: double-stranded DNA, one strand shown
Medium: in vitro
Tested at: 940 nM top
Notes: 60-bp whole probe
Together with: salmon DNA 0.4 mg/ml
Relative to: random background probes
Direction: higher = stronger binding
All sequences stand within: GCCTAGCAC … GTCTTGATTCGCTTGACGCTGCTG
Sequence	fitted relative affinity [z-score]
TTAGGTGTCGACACTGGGTTAGTGCTA	0.0924
TGAGGTTTCGGTTCCGGTTAGTGCTAG	11.6
GACGGTTTCGACACTGCGGACGTGCTA	7.05
GACGGTTTCGGGTTCCGGGACGTGCTA	9.94
GACGGTCTCGGTTTCGGGAGGTGCTAG	6.03
GACGATCTCGGTTTCGGGACGTGCTAG	4.39
ATATATATATTGTTAGTGTAGTGCTAG	0.32
TTAGGTCTCGTTTTCCTTTAGTGCTAG	2.93
TTAGGTATCCTTCTCCATTAGTGCTAG	0.848
GACGCTTTCGACACTGGGGACGTGCTA	2.34
GACGGTATCGGTATCGGGATGTGCTAG	8.22
GACGGTCTCGTTCTCCTGACGTGCTAG	2.13
GACGATATCGGGACTGGAGAGGTGCTA	0.0609
GACGGTCTGCTACTGCTGACGTGCTAG	-0.703
TCAAACTTGTGTTTGTCACTGTGCTAG	0.0441
ATCTCACTCTGTCCCTCTGTGTGCTAG	1.8
GACGAAATCAGTATCGAGACGTGCTAG	2.34
GACGAACTGGGGTATCTAGACGTGCTA	-0.00206
TTAGATTTCAGTATCGCTTAGTGCTAG	3.02
CTTTTTTTTTTTTTTTTTTGGTGCTAG	1.26
TTAGATTGCAGTTCCGATTAGTGCTAG	0.817
TAATGGATATATATCATTTAGTGCTAG	0.0673
TCACCTTTTTTGTTGTTACTGTGCTAG	1.47
GCCGGTATCGGTTTCGGGACGTGCTAG	11.6
TTAGTTTTCGGTTCCGGTTAGTGCTAG	6.05

Study 3
Target: Histone acetyltransferase KAT6A, winged helix 2, GST fusion (KAT6A, Homo sapiens, UniProt Q92794, residues 85-181)
Technique: protein binding microarray
Form: double-stranded DNA, one strand shown
Medium: in vitro
Tested at: not given
Notes: 8-mer, flanks averaged, mean of 2 arrays, mostly near background
Relative to: not given
Direction: higher = stronger binding
Target sequence (chain): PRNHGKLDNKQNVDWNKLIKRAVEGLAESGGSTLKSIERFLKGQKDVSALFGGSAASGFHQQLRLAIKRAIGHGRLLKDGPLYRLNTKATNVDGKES
Sequence	E-score
ATGCGCAC	0.0193
AGGCGATG	0.0563
AAATTCAT	0.134
TCGATGAA	0.0335
ATACGCTC	-0.0635
AATGCCTC	0.0381
TCTGCTAA	0.0894
CGAACCGA	0.267
AAACCCAC	0.11
CGCGTCAA	-0.109
CGTGGTAC	-0.0377
AGTGAAAC	0.0156
CGGGATCC	0.15
CCCTCTAC	-0.117
GTAGTCAA	-0.0608
AAGCTGGC	0.0393
GCTGCTCA	0.0283
GCATCACC	-0.000165
AGAGCCTA	-0.0574
ACTCTCCA	-0.0613
TTGCACAA	0.0078
CGCGTATA	-0.117
GCAGTCAC	-0.00301
CAGACTGC	-0.17
ATGGCGTG	0.0209

Study 4
Target: Sal-like protein 4, full length isoform A (SALL4, Homo sapiens, UniProt Q9UJQ4, residues 1-1053)
Chain of UniProt Q9UJQ4 (whole entry, looked up): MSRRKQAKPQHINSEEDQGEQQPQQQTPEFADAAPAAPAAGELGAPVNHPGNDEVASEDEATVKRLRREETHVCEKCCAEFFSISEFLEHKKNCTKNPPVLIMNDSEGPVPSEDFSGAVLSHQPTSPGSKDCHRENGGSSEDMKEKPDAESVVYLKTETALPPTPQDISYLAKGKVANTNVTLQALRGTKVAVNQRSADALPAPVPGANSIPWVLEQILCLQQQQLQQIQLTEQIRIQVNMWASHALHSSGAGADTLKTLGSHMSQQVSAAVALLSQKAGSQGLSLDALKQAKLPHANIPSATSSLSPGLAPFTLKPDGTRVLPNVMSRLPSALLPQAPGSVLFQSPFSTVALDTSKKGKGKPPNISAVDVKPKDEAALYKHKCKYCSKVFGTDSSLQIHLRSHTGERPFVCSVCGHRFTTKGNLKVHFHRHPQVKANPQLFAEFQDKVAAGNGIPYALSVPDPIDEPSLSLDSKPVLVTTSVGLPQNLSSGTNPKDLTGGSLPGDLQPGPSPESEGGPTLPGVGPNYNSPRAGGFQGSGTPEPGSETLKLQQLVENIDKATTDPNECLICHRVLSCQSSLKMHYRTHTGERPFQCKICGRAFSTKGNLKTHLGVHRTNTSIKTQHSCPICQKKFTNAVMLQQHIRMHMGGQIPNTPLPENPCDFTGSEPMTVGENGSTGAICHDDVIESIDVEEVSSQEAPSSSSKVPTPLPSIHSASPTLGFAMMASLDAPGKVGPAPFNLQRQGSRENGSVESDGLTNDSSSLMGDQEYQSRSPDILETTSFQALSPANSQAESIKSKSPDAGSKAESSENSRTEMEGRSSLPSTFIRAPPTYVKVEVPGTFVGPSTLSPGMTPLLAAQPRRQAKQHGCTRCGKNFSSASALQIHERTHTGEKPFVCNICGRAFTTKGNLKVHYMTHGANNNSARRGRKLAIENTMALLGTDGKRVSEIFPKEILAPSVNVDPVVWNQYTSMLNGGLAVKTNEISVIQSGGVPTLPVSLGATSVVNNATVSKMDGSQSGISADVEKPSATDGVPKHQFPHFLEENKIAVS
Technique: universal PBM
Form: double-stranded DNA, one strand shown
Medium: in vitro
Tested at: 600 nM
Notes: 8-mer, flanks averaged, mean of replicates
Direction: higher = stronger binding
Sequence	E-score
AGACATAA	0.246
ATGGGTAC	0.0867
GAATTGGA	0.105
CGGAGTTA	-0.148
CCTTACAC	-0.0781
CACGCAAG	-0.0184
CAGATTCC	-0.233
ATAGCAAT	0.273
ACCTCCTG	-0.139
GTTCCAAC	-0.0299
ACCCGGAG	-0.263
GAGACTAC	-0.126
AGCGATGG	-0.279
TCTTACAA	0.137
GTAAAGGA	0.147
AACCCCGA	-0.177
GATTCGTA	0.091
GCGTTGAC	-0.181
CACGAAAA	0.158
CCCTTGAC	-0.2
ACCGCACA	-0.224
TATTAAAA	0.436
GAGCACCA	-0.102
GACGCCCA	-0.216

Study 5
Target: Ras GTPase-activating protein-binding protein 1, C-terminal RGG region (G3BP1, Homo sapiens, UniProt Q13283)
Chain of UniProt Q13283 (whole entry, looked up): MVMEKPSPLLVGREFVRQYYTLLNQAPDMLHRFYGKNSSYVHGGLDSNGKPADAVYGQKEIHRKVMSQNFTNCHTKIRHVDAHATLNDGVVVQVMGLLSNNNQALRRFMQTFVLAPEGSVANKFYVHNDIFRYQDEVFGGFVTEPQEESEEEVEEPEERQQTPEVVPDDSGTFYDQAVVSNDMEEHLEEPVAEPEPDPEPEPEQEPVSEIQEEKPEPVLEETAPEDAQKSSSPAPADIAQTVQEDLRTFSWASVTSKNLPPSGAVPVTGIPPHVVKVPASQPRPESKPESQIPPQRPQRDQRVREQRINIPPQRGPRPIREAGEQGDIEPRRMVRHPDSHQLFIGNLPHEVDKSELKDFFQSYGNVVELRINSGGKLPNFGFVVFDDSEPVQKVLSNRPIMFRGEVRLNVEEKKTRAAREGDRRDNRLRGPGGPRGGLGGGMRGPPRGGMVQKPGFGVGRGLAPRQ
Technique: RNA Bind-n-Seq
Form: RNA
Medium: in vitro
Tested at: 1 µM
Notes: whole 134-nt RNA, ends assumed
Together with: 150 mM KCl
Relative to: input library
Direction: higher = stronger binding
All sequences stand within: GGGAGUUCUACAGUCCGACGAUC … UGGAAUUCUCGGGUGUCAAGG
Sequence	log2 enrichment
UGGCCCUGGUGGCAUGCGGGGAGGAAGAGGUGGCCUCAUGGAUCGUGGUGGUCCCGGUGGAAUGUUCAGAUGUGGCCGUGGUGGAGACAG	2.97
ACCAUGCAGGUGGGUAUCUUUGGGAAGUGGGGCAAGGGGGGGAUAGGGAGGGGGGUAACACUUUGGGAACAGGUGGUCCCAGGUCGUUUC	-1.51
UCAAGUCCUGUGCUACACAUCGUAUGUACCGAAUCGGGGUUGGGGUUGGGUUGGGAAAGUAUUAUGUUACGCCGUUCGGAUCUGCACUUC	1.93
UCUUCAGAGGCCCCACAGUAUCAAAUAUCCGCCUGGCUGGAUUAGAGUAUGUUCUGCACUUCACUGCACUGAAUGGGAAGAUUUACUUUC	-0.714
UCCUGUGCUACACAUCGUAUGUACCGAAUCGGAAAAAAAGGGAAAAAAAGGAAAAAAAGGAAAGUAUUAUGUUACGCCGUUCGGAUCUGC	-1.07
UGCAGUGAUGGUCAUUGUCCUCCAGAGCAGUGAUGGAGGAAAUACCAGCCCAGGAAGCAGCAGGGUCACCAAGGGUCCAGUUUCAGUCUU	-0.529
CAAGUCCUGUGCUACACAUCGUAUGUACCGAAUCGGGAAAAAAAGGGAGGGAGGGAAAGUAUUAUGUUACGCCGUUCGGAUCUGCACUUC	1.58
CCUCAAGUCCUGUGCUACACAUCGUAUGUACCGAAUCGGGGCGGGCGGGGCGGAAAGUAUUAUGUUACGCCGUUCGGAUCUGCACUUCCA	0.989
UCAAGUCCUGUGCUACACAUCGUAUGUACCGAAUCGGGUUUUUGGGUGGGAGGGAAAGUAUUAUGUUACGCCGUUCGGAUCUGCACUUCC	1.02
UCAAGUCCUGUGCUACACAUCGUAUGUACCGAAUCGGGGCCCGGCCCGGCCCGGGAAAGUAUUAUGUUACGCCGUUCGGAUCUGCACUUC	-1.77
CACAAACAACACGCACCCACACAGACACAGAGGGAAGGGGUUGGGAUGGGGACAGGGUGCACAGCAGGGCGGGGUAGGACCCCAGCCCCU	-0.232
ACCAUGCAGGUGGGCAUCUUUGGGAGGUGGGGCAAGGGGGGGAUAGGGAGGGGGGUAACACUUUGGGAACAGGUGGUCCCAGGUCGUUUC	-1.32
AGUCCUGUGCUACACAUCGUAUGUACCGAAUCAAAUUUUUAAACCCCCAAACCCAAAAAAGUAUUAUGUUACGCCGUUCGGAUCUGCACU	-0.956
CUGUGCUACACAUCGUAUGUACCGAAUCGGGGCCCCCCCGGCCCCCCCGGGCCCCCCCGGGGAAAGUAUUAUGUUACGCCGUUCGGAUCU	-2.12
